Measurements gathered from unrelated publications.
Lines come from different studies, so protocols differ. ± marks the error that the study gave.
cofactor-independent phosphoglycerate mutase W431C: cofactor-independent phosphoglycerate mutase (Metamycoplasma orale, UniProt A0A448ZXM1, W431C)
Sequence of UniProt P0A725 (whole entry, looked up): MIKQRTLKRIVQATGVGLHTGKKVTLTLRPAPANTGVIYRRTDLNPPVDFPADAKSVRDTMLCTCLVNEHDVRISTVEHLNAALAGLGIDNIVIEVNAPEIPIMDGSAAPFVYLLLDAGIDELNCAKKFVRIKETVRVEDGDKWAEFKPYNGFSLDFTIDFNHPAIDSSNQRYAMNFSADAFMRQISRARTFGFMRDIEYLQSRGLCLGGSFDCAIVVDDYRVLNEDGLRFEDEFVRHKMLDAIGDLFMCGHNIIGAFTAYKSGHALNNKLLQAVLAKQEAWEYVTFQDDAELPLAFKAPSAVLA
Sequence of UniProt P21554 (whole entry, unmodified, looked up): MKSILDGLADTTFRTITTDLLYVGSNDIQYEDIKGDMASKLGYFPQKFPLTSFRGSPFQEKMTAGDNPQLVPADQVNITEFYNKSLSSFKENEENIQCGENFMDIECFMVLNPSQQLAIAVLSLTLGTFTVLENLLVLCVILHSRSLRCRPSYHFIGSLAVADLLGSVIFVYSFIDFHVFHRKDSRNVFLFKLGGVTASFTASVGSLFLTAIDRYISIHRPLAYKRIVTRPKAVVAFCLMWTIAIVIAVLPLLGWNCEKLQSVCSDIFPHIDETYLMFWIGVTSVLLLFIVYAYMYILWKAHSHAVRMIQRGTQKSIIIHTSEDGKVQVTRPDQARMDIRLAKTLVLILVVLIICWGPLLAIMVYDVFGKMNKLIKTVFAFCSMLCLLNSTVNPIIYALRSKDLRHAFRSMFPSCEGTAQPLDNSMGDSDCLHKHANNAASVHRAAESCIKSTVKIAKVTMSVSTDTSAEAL
Sequence of UniProt P47746 (whole entry, looked up): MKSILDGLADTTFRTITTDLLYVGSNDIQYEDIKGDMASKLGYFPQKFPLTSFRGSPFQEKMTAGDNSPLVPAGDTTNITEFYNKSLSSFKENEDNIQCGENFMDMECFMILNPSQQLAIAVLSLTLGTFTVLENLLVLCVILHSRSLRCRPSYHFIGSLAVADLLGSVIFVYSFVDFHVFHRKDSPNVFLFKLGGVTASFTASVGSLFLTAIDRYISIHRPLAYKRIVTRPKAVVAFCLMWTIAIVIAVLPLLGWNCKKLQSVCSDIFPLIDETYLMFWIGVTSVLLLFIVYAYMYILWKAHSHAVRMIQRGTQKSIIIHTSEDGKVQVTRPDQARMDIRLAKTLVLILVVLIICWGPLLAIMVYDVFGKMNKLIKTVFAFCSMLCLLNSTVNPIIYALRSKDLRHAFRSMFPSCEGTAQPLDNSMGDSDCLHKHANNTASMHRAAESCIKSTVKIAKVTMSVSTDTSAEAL
Sequence of UniProt G5EFZ1 (whole entry, looked up): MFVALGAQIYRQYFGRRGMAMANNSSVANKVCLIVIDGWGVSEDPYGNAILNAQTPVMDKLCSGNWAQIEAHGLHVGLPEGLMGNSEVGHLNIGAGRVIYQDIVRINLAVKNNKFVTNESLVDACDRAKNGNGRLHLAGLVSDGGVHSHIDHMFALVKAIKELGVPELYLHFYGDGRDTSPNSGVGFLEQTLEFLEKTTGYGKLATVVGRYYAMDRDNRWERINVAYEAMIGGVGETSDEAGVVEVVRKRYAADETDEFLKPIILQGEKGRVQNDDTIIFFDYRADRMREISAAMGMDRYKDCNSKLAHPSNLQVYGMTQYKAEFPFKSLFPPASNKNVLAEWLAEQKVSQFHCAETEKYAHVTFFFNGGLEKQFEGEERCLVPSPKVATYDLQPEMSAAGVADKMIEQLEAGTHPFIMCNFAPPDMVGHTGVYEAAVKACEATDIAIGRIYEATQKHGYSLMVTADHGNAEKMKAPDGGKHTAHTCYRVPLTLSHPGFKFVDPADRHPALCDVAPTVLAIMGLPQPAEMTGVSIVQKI
Sequence of UniProt P20309 (whole entry, unmodified, looked up): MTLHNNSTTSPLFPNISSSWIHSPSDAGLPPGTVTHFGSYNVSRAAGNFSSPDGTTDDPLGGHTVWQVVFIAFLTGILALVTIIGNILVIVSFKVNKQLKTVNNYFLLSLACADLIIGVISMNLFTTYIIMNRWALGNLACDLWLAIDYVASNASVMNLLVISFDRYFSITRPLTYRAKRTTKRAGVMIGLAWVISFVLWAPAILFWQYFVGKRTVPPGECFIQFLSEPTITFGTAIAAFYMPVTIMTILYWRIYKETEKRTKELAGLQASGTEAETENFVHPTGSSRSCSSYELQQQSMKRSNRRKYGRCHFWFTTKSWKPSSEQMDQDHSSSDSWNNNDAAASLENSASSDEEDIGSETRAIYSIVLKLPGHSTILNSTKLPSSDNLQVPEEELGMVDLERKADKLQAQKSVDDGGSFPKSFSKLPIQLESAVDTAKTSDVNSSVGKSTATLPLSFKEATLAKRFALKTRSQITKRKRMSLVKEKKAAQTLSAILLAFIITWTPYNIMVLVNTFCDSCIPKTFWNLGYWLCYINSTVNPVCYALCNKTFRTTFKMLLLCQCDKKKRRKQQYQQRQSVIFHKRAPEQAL
Sequence of UniProt P14780 (whole entry, looked up): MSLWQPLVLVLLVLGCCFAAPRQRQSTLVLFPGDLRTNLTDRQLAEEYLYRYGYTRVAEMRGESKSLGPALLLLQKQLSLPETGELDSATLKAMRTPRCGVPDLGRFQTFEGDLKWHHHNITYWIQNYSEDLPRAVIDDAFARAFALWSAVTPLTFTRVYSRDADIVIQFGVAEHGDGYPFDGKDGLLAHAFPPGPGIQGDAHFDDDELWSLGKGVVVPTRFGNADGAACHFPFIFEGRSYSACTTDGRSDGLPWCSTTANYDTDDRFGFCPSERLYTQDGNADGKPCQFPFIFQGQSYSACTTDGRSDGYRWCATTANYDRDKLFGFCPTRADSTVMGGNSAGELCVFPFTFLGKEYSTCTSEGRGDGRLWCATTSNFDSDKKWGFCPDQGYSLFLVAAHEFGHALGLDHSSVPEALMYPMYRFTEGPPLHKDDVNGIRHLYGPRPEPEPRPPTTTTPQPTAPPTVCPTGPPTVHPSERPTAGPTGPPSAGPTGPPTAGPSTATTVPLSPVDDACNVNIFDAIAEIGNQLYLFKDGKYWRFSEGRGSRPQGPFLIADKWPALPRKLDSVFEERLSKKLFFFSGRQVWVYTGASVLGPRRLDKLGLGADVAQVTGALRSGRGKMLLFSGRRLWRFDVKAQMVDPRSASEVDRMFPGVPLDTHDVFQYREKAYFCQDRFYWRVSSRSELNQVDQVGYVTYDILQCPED
Sequence of UniProt Q16820 (whole entry, looked up): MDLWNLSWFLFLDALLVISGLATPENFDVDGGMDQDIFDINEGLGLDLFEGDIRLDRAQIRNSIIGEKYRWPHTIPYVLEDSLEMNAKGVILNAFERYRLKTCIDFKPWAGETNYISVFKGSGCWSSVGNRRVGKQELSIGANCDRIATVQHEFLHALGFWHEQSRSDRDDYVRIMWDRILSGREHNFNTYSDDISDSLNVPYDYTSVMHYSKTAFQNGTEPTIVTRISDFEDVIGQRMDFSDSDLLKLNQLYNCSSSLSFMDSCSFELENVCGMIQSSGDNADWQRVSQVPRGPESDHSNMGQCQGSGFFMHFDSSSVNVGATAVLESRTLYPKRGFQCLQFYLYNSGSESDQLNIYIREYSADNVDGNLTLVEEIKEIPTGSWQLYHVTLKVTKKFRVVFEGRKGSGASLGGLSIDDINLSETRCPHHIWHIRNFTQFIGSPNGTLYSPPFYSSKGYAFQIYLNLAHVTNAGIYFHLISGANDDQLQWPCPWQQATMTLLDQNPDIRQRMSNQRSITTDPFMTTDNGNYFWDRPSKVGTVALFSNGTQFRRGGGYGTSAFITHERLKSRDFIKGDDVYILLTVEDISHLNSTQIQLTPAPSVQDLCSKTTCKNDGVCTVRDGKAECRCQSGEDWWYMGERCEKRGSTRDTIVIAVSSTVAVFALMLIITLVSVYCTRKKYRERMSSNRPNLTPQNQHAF
Sequence of UniProt P40337 (whole entry, looked up): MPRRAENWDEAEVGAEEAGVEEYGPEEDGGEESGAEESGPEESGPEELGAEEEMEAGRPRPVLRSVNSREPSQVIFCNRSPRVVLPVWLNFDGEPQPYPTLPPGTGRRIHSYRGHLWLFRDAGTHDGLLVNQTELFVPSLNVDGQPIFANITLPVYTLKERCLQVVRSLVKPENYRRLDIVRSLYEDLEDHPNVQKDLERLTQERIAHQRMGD

SMILES | target | assay | test system | setting | measurement | result
O=C1C(=Cc2cn(Cc3ccc(F)cc3)c3ccccc23)N2CCC1CC2 | Cannabinoid receptor 1 (Cnr1, Mus musculus, UniProt P47746) | cAMP level, agonist | Neuro2A | with: 10 µM forskolin | IC50 | 243 ± 57.5 nM
CCN1CCN(C2=Nc3cc(Cl)ccc3Nc3ccccc32)CC1 | Muscarinic acetylcholine receptor M3 (CHRM3, Homo sapiens, UniProt P20309, A239G/Y149C) | calcium signal, agonist |  |  | EC50 | 7 nM
O=P(O)(O)Oc1ccc(Oc2ccc(S(=O)(=O)CC3CS3)cc2)cc1 (racemic) | Matrix metalloproteinase-9 (MMP9, Homo sapiens, UniProt P14780) | enzyme activity, inhibitor |  |  | Ki | 35800 nM
NCCCC[C@H](NC(=O)[C@H](CC(N)=O)NC(=O)[C@H](CCCCNC(=O)[C@H](Cc1ccc(B(O)O)cc1)NC(=O)[C@H](Cc1ccc(O)cc1)NC(=O)[C@@H](N)Cc1ccc(B(O)O)cc1)NC(=O)[C@H](Cc1ccc(B(O)O)cc1)NC(=O)[C@H](Cc1ccc(O)cc1)NC(=O)[C@@H](N)Cc1ccc(B(O)O)cc1)C(=O)N[C@@H](CO)C(=O)N[C@@H](Cc1ccc(O)cc1)C(N)=O | HIV-1 RRE IIB RNA | binding, dot blot |  | 4 h, pH 7.0, room temperature | Kd | 8700 ± 2200 nM
CC(C)[C@@H]1NC(=O)[C@H](CCC(N)=O)NC(=O)[C@@H](Cc2ccc(O)cc2)NC(=O)CSC[C@@H](C(N)=O)NC(=O)[C@H](CC(=O)O)NC(=O)[C@H](CCC(=O)O)NC(=O)[C@H](Cc2c[nH]c3ccccc23)NC(=O)[C@@H]2CCCN2C(=O)[C@H](CO)NC(=O)[C@H](C)NC(=O)[C@H](Cc2c[nH]c3ccccc23)NC(=O)[C@H](Cc2c[nH]c3ccccc23)NC(=O)[C@H](C(C)C)NC(=O)[C@H]([C@@H](C)O)NC1=O | cofactor-independent phosphoglycerate mutase W431C | biochemical | Mycoplasma orale |  | AC50 | 7.94 nM
CC1=CC(C)=[N+]2C1=Cc1ccc(CCC(=O)NCCOCCOCCOCCOCC(=O)N[C@H](C(=O)N3C[C@H](O)C[C@H]3C(=O)NCc3ccc(-c4scnc4C)cc3)C(C)(C)C)n1[B-]2(F)F | von Hippel-Lindau disease tumor suppressor, with elongin B/C (VHL, Homo sapiens, UniProt P40337) | binding, TR-FRET |  | 150 min, with: BODIPY FL VH032 | Kd | 3.01 nM
COc1ccc(C[C@H]2C(=O)N[C@@H](CC(N)=O)C(=O)N[C@@H](CC(=O)O)C(=O)N[C@@H](CO)C(=O)NCC(=O)N[C@@H](Cc3c[nH]c4ccccc34)C(=O)N(C)[C@@H](Cc3ccc(O)cc3)C(=O)N[C@@H](CC(N)=O)C(=O)N[C@@H]([C@@H](C)O)C(=O)N(C)[C@@H](Cc3ccccc3)C(=O)N[C@H](C(N)=O)CSCC(=O)N[C@@H](Cc3ccc(O)cc3)C(=O)N2C)cc1 | cofactor-independent phosphoglycerate mutase W431C | biochemical | Mycoplasma orale |  | AC50 | 45700 nM
CCCCCn1cc(C(=O)c2ccc3ccccc3c2)c2ccccc21 | Cannabinoid receptor 1 (CNR1, Homo sapiens, UniProt P21554, I267L/L193I/L359V) | Gαi1 engagement, agonist, BRET |  |  | EC50 | 81.3 nM
CN1C(=O)[C@H](CCC(=O)O)NC(=O)[C@H](Cc2ccc(O)cc2)NC(=O)[C@H](CCCNC(=N)N)NC(=O)[C@@H](Cc2ccc(O)cc2)NC(=O)CSC[C@@H](C(N)=O)NC(=O)[C@H](CCCCN)NC(=O)[C@@H]2CCCN2C(=O)[C@H](CS)NC(=O)[C@H](CCC(=O)O)NC(=O)[C@H](Cc2ccc(O)cc2)N(C)C(=O)[C@H](CCCCN)NC(=O)[C@H](Cc2ccc(O)cc2)NC(=O)[C@@H]1Cc1ccc(O)cc1 | ipgm-1 (Caenorhabditis elegans, UniProt G5EFZ1) | enzyme activity |  |  | AC50 | 3980 nM
C[C@@](O)(C(F)F)[C@H](NC(=O)c1ccc(C#CC#CC2CC2)cc1)C(=O)NO | UDP-3-O-acyl-N-acetylglucosamine deacetylase (Escherichia coli K-12, UniProt P0A725) | enzyme activity, inhibitor |  |  | Ki | 0.22 nM
O=C(Cc1c(-c2ccccc2)n[nH]c1-c1ccccc1)NO | Meprin A subunit beta (MEP1B, Homo sapiens, UniProt Q16820) | enzyme activity, inhibitor |  |  | Ki | 116 nM
CC(C)[C@@H]1NC(=O)[C@H](CCC(N)=O)NC(=O)[C@@H](Cc2ccc(O)cc2)NC(=O)CSC[C@@H](C(N)=O)NC(=O)[C@H](CC(=O)O)NC(=O)[C@H](CCC(=O)O)NC(=O)[C@H](Cc2c[nH]c3ccccc23)NC(=O)[C@@H]2CCCN2C(=O)[C@H](CO)N(C)C(=O)[C@H](C)NC(=O)[C@H](Cc2c[nH]c3ccccc23)NC(=O)[C@H](Cc2c[nH]c3ccccc23)NC(=O)[C@H](C(C)C)NC(=O)[C@H]([C@@H](C)O)NC1=O | cofactor-independent phosphoglycerate mutase W431C | biochemical | Mycoplasma orale |  | AC50 | 2.63 nM
